Published values pooled from the literature.
Each numbered part is a random draw from the data of one study; scales do not carry over between parts. Several values in a cell are separate wells, animals, samples, runs or records.
Sequence of UniProt P00519 (whole entry, unmodified, looked up): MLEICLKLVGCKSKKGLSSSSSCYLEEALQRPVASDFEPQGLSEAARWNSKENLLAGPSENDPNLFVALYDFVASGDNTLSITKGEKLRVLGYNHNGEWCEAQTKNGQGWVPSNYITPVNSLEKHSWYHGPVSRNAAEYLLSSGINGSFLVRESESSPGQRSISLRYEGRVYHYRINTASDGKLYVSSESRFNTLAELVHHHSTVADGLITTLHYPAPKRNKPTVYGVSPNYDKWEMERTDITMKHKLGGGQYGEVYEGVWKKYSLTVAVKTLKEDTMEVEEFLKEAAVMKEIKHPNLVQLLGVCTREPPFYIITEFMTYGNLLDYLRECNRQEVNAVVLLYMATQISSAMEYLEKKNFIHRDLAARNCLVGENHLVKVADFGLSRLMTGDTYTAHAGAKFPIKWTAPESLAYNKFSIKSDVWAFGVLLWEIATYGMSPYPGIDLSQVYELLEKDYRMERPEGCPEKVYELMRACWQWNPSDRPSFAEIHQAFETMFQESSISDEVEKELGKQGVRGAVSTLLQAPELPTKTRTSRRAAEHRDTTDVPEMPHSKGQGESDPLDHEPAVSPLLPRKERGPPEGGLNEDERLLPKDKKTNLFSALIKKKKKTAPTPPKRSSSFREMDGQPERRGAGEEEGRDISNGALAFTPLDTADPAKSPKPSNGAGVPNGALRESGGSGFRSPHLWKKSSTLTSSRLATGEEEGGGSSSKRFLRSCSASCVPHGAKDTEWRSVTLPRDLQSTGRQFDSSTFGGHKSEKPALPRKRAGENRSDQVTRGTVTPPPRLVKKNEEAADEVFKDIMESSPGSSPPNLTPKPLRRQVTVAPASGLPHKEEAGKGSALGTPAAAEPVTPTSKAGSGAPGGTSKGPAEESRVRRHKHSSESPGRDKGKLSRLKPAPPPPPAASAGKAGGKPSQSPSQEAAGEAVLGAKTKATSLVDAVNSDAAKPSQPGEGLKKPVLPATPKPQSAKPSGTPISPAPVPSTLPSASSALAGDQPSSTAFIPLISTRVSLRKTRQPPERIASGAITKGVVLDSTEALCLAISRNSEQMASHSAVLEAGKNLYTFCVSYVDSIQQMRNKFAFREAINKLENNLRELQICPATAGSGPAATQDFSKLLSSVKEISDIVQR
Sequence of UniProt P35968 (whole entry, looked up): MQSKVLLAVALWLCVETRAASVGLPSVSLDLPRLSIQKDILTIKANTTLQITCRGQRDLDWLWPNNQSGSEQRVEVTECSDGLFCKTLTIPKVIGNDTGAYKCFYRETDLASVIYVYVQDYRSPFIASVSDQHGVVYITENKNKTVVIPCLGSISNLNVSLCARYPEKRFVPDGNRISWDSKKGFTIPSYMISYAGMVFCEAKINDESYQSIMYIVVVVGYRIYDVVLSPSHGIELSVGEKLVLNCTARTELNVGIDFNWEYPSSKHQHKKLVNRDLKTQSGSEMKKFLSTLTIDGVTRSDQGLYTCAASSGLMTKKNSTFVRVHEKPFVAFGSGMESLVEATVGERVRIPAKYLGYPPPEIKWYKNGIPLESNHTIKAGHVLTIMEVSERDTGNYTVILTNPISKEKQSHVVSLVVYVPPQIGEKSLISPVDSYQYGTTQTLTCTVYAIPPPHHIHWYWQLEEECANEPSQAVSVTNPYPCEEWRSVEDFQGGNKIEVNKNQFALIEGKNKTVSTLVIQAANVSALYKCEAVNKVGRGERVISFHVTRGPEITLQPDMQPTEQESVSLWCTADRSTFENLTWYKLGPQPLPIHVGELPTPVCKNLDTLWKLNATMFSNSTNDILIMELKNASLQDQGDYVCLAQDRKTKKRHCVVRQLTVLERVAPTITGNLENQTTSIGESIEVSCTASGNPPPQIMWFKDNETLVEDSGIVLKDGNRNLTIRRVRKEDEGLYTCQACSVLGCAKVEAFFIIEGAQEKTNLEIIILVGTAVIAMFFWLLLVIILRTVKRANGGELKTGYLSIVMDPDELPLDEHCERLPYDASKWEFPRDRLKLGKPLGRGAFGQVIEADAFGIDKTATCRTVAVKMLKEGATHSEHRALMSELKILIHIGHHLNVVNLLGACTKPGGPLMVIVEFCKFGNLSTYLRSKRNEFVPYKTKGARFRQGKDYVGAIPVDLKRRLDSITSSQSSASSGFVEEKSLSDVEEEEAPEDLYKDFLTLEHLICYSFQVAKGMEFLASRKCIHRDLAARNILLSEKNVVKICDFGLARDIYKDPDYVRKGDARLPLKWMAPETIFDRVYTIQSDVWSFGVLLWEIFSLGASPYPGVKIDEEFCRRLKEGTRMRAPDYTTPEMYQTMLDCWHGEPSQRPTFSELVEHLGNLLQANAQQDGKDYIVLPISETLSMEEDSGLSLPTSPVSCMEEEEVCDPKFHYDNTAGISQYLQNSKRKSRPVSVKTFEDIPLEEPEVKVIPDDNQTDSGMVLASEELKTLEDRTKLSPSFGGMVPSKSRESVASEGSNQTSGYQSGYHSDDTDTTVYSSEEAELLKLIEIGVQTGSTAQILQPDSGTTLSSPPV
Sequence of UniProt Q8NG66 (whole entry, looked up): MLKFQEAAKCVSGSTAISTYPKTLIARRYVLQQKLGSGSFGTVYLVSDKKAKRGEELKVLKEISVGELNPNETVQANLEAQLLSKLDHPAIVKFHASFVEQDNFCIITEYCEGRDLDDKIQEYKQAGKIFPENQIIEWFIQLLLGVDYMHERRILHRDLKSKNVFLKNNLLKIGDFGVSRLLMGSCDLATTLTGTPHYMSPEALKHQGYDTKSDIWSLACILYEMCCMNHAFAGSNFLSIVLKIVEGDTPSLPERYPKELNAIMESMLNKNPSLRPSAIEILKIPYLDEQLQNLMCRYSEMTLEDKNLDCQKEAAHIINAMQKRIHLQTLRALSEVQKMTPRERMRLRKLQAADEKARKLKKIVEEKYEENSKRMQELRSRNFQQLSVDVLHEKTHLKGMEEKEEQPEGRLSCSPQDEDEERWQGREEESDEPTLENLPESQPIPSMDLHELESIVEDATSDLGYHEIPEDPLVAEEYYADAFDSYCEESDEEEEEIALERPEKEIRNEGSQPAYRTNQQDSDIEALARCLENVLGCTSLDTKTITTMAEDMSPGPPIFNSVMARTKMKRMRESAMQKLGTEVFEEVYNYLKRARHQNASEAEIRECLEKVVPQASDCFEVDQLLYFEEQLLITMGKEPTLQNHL

Block 1
SMILES: O=C(NCc1ncc(C(F)(F)F)cc1Cl)c1ccc2c(c1)C1(CCS(=O)(=O)CC1)[C@@H](C1CC1)N2S(=O)(=O)c1ccc(F)cc1
Technique: competition with immobilised ligand
Tested at: 1 µM
Endpoint: remaining binding
Microtubule-associated serine/threonine-protein kinase 1 (MAST1, Homo sapiens, UniProt Q9Y2H9); cell-free assay: 61%
Epidermal growth factor receptor (EGFR, Homo sapiens, UniProt P00533); cell-free assay: 100%
Vascular endothelial growth factor receptor 2 (KDR, Homo sapiens, UniProt P35968); cell-free assay: 80%
Wee1-like protein kinase 2 (WEE2, Homo sapiens, UniProt P0C1S8); cell-free assay: 100%
Insulin receptor-related protein (INSRR, Homo sapiens, UniProt P14616); cell-free assay: 100%
Serine/threonine-protein kinase Nek11 (NEK11, Homo sapiens, UniProt Q8NG66); cell-free assay: 100%
Tyrosine-protein kinase Fgr (FGR, Homo sapiens, UniProt P09769); cell-free assay: 93%
Tyrosine-protein kinase ABL1, phosphorylated (ABL1, Homo sapiens, UniProt P00519, F317L); cell-free assay: 78%
Tyrosine-protein kinase ABL1, non-phosphorylated (ABL1, Homo sapiens, UniProt P00519, F317I); binding: 71%
Cyclin-dependent kinase 16 (CDK16, Homo sapiens, UniProt Q00536); cell-free assay: 80%
Death-associated protein kinase 2 (DAPK2, Homo sapiens, UniProt Q9UIK4); cell-free assay: 90%
Serine/threonine-protein kinase pim-1 (PIM1, Homo sapiens, UniProt P11309); cell-free assay: 74%
Tyrosine-protein kinase Srms (SRMS, Homo sapiens, UniProt Q9H3Y6); cell-free assay: 60%
Receptor-interacting serine/threonine-protein kinase 2 (RIPK2, Homo sapiens, UniProt O43353); cell-free assay: 100%
Cyclin-dependent kinase-like 1 (CDKL1, Homo sapiens, UniProt Q00532); cell-free assay: 100%
Mitogen-activated protein kinase kinase kinase 10 (MAP3K10, Homo sapiens, UniProt Q02779); cell-free assay: 100%
Receptor tyrosine-protein kinase erbB-2 (ERBB2, Homo sapiens, UniProt P04626); cell-free assay: 100%
Mitogen-activated protein kinase 3 (MAPK3, Homo sapiens, UniProt P27361); cell-free assay: 83%
Mitogen-activated protein kinase kinase kinase 1 (MAP3K1, Homo sapiens, UniProt Q13233); cell-free assay: 68%
cAMP-dependent protein kinase catalytic subunit alpha (PRKACA, Homo sapiens, UniProt P17612); cell-free assay: 98%

Block 2
Target: Maternal embryonic leucine zipper kinase (MELK, Homo sapiens, UniProt Q14680)
Sequence of UniProt Q14680 (whole entry, looked up): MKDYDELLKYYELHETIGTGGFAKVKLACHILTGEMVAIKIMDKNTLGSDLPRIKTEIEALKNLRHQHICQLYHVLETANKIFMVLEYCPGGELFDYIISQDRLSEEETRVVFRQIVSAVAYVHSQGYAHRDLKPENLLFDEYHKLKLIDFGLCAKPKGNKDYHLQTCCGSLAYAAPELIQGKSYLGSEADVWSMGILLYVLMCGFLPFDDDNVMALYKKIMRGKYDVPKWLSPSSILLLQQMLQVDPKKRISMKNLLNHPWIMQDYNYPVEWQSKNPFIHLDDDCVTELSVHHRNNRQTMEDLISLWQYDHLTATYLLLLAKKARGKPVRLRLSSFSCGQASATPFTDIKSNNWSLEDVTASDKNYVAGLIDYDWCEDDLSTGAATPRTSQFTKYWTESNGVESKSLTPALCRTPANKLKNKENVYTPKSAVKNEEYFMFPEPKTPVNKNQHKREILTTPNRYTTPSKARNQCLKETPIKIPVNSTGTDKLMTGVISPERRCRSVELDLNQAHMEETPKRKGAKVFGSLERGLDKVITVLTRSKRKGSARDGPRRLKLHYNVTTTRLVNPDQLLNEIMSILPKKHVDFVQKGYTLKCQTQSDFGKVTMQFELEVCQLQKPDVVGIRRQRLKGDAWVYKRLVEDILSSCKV
Observed: enzyme activity
Mode: inhibitor
Tested at: 0.5 µM
Baseline: control
Endpoint: remaining activity
Ic1cccc(CSc2nnc(-c3ccncc3)o2)c1: 97.7%
COc1cc2ncnc(Nc3ccc(O)c(Br)c3)c2cc1OC: 83.4%
O=c1cc(-c2cccc3c2Sc2ccccc2S3)oc(N2CCOCC2)c1: 99.9%
c1ccc(-c2cnc(Nc3ccc(OCCN4CCCC4)cc3)s2)cc1: 83.5%
Cn1nc2c3c(cccc31)C(=O)c1ccccc1-2: 83.6%
O=C1c2ccccc2-c2n[nH]c3cccc1c23: 21.6%
c1ccc(-c2[nH]ncc2-c2ccnc3ccccc23)nc1: 93.3%
O=C(NC(NC(=S)Nc1ccc(F)c([N+](=O)[O-])c1)C(Cl)(Cl)Cl)C(c1ccccc1)c1ccccc1 (stereo not shown): 102%
CCOc1nc(NC(=O)Cc2cc(OC)ccc2OC)cc(N)c1C#N: 97.1%
N#C/C(=C\c1ccc(O)c(O)c1)C(=O)NCc1ccccc1: 100%
Cc1cc2ncc(-c3ccccc3)nc2cc1C: 91.1%
Nc1cccc(-c2cc3c(Oc4cccc(O)c4)ncnc3[nH]2)c1: 93.4%
CN(C)C[C@H]1CCn2c(c(C3=C(c4cn(C)c5ccccc45)C(=O)NC3=O)c3ccccc32)C1: 96.4%
N#Cc1c(NC(=O)c2cccc3ccccc23)sc2c1CCCC2: 83.3%
C[C@@H]1CCN(C(=O)CC#N)C[C@@H]1N(C)c1ncnc2[nH]ccc12: 79.4%
CCN(CC)CCNC(=O)c1c(C)[nH]c(/C=C2\C(=O)Nc3ccc(F)cc32)c1C: 10.4%
COc1cc2c(cc1OC)-c1[nH]nc(Nc3cccc(F)c3)c1C2: 72.1%
O=C(Nc1cccc(Nc2nccc(Nc3cccc(C(F)(F)F)c3)n2)c1)C1CC1: 101%
Cc1nc2cc3nc(-c4cccs4)cnc3cc2n1C: 95.6%
O=C1C(Cl)=C(N2C(=O)CCC2=O)C(=O)c2ccccc21: 96.4%
COc1cc2ncnc(Nc3cccc(Cl)c3)c2cc1OC: 81.8%
CCN(CC)CCNC(=O)c1c(C)[nH]c(/C=C2\C(=O)Nc3ccc(Cl)cc32)c1C: 16.7%
Cc1cn(-c2cc(NC(=O)c3ccc(C)c(Nc4nccc(-c5cccnc5)n4)c3)cc(C(F)(F)F)c2)cn1: 90%
CCN(CC)C(=O)c1ccc(Nc2nc(OCC3CCCCC3)c3[nH]cnc3n2)cc1: 76.3%

Block 3
SMILES: C=C(F)C(=O)N1CCN(c2nc(OC[C@@H]3CCCN3C)nc3c2CCN(c2cccc4cccc(Cl)c24)C3)C[C@@H]1CC#N
Target: GTPase HRas (HRAS, Homo sapiens, UniProt P01112)
Observed: binding
Mode: competitor
Technique: NanoBRET
Cells: HEK293
Endpoint: normalized BRET
153 pM: 92.1%
20 µM: 148% and 189%
741 nM: 107% and 104%

Block 4
Cell line: HaCaT
Tested at: 100 µM
Time: 18 h
Endpoint: viability
O=c1cc(-c2ccccc2)oc2cc(O)c(O)c(O)c12: 73.8%
COc1cc2c(cc1OC)[C@H]1CC(=O)[C@H](CC(C)C)CN1CC2 (racemic): 107%
Nc1nc(F)nc2c1ncn2[C@@H]1O[C@H](COP(=O)(O)O)[C@@H](O)[C@@H]1O: 99.8%
Cc1c(N(C)CS(=O)(=O)O)c(=O)n(-c2ccccc2)n1C: 105% and 134%
CC1(C)S[C@@H]2[C@H](NC(=O)[C@H](N)c3ccc(O)cc3)C(=O)N2[C@H]1C(=O)O: 110%
Nc1ccc(/N=N/c2ccccc2)c(N)n1: 85.9%
CC(C)(Oc1ccc(CCNC(=O)c2ccc(Cl)cc2)cc1)C(=O)O: 97%
Cc1cc(/C=C/C#N)cc(C)c1Nc1ccnc(Nc2ccc(C#N)cc2)n1: 24.1%
O=C1CN2Cc3c(ccc(Cl)c3Cl)N=C2N1: 108%
CCCCC(CC)CN1CN(CC(CC)CCCC)CC(C)(N)C1 (stereo not shown): 66.2%
CCC(C)(C)c1ccc(CC(C)CN2C[C@@H](C)O[C@@H](C)C2)cc1 (stereo partly shown): 20%
O=C(O)CN(CCN(CC(=O)O)CC(=O)O)CC(=O)O: 108%
CN1C(C(=O)Nc2ccccn2)=C(O)c2sccc2S1(=O)=O: 74%
O=C(O)Cc1ccccc1Nc1c(Cl)cccc1Cl: 98%
